# Measurements gathered from unrelated publications.
# The chains behind the UniProt entries cited, without tags or fusion partners. A line that says so, or that is headed by a name, gives the form on record, which may keep a tag or linker. Residues count along the entry.
# UniProt P04150, whole entry: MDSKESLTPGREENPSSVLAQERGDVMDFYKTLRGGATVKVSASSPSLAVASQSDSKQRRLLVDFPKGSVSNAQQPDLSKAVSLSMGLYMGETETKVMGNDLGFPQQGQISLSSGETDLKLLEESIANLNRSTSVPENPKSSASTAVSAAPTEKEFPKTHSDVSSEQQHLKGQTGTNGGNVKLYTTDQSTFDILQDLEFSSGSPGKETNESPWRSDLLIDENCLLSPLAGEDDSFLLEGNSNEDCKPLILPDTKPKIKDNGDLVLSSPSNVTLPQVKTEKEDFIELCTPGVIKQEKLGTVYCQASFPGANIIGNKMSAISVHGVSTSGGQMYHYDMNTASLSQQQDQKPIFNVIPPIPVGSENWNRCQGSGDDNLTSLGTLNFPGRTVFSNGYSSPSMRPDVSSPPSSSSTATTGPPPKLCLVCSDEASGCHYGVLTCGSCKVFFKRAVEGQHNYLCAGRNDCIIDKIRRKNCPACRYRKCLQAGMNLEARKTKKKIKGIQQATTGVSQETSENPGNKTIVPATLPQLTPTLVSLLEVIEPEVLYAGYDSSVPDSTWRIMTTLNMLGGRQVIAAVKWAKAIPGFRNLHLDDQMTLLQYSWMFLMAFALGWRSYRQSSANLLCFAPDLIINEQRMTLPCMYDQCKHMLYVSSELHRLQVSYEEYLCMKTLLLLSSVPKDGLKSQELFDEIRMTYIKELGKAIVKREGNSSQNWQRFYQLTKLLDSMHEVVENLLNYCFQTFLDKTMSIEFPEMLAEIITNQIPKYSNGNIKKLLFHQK
# UniProt P08631, whole entry: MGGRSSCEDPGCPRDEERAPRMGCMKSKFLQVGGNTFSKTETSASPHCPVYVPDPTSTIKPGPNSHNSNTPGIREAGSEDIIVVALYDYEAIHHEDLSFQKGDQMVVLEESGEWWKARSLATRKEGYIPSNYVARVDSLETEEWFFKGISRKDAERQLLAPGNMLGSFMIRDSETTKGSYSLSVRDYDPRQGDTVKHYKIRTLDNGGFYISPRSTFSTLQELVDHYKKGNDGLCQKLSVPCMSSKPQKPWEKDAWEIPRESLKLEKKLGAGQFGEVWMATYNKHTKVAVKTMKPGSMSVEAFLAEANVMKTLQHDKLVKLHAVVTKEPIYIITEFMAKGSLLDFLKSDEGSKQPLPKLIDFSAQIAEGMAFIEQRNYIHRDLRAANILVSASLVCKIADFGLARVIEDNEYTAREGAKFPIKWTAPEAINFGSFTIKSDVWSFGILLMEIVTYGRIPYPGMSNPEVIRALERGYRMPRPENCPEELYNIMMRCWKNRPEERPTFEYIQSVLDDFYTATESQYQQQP
# UniProt O14618, 11-74 limits assumed: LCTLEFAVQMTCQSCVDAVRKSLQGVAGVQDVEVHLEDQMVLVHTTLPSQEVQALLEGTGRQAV
# UniProt P01139, 122-241 limits assumed: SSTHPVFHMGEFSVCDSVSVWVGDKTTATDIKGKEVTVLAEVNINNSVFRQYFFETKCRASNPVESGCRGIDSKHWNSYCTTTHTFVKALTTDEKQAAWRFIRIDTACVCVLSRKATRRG
# UniProt Q9QWY8, 325-724 limits assumed: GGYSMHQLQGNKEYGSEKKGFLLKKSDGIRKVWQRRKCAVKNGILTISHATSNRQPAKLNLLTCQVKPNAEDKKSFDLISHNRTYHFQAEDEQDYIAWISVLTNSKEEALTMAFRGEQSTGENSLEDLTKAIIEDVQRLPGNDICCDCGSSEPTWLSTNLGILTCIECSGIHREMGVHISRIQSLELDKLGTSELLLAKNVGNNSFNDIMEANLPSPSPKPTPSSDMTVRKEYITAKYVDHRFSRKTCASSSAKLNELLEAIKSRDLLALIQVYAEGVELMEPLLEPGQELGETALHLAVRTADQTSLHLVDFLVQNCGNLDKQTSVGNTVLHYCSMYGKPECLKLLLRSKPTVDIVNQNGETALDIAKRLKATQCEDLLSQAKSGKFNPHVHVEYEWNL
# UniProt O28751, whole entry: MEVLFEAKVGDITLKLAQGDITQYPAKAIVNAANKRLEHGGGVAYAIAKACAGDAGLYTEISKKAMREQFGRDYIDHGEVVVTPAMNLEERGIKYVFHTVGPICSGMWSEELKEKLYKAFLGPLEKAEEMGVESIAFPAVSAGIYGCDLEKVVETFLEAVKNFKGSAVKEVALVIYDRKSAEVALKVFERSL
# UniProt Q06124, whole entry: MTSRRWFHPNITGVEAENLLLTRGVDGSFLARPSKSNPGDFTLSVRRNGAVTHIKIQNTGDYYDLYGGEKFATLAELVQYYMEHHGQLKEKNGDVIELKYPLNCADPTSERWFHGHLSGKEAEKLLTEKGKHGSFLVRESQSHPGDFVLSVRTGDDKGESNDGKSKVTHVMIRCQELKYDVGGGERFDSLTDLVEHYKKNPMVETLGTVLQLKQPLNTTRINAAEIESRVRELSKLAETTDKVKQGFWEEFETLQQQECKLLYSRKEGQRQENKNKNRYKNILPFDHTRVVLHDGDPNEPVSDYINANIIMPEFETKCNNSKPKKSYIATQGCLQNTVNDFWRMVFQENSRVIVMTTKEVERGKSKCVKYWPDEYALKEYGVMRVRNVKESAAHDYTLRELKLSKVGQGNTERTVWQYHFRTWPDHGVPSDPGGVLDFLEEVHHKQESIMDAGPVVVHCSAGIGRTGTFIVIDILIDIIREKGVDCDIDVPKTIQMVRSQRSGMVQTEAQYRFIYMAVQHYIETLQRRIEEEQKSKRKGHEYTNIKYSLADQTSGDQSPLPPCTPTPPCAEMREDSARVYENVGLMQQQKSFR
# UniProt P10636, 623-758 limits assumed: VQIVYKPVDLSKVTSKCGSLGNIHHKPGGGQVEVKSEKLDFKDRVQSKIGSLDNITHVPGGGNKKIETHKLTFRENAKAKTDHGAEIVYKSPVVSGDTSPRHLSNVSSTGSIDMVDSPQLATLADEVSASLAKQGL
# UniProt O00255, whole entry: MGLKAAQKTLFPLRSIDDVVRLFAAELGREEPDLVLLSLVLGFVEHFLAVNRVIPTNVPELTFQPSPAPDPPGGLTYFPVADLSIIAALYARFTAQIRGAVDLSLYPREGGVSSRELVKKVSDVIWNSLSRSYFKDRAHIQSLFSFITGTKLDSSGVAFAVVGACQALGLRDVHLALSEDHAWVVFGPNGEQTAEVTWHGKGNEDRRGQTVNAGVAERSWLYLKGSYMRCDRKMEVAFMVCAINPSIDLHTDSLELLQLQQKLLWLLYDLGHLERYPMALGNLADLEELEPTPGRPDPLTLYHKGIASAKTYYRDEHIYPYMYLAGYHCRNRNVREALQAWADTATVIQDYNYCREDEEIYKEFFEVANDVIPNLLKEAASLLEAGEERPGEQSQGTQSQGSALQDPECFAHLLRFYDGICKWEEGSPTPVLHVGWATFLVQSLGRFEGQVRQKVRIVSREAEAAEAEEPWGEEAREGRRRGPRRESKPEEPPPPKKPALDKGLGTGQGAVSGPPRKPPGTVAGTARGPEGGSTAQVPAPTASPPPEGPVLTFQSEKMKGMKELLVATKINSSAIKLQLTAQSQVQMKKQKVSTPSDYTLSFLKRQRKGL
# UniProt P31749, 1-149 with tags or gaps DEL38-52 limits assumed: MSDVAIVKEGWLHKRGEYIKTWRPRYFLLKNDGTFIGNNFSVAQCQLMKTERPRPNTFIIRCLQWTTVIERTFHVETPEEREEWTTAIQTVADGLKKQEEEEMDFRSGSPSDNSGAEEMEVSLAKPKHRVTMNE
# Protocols differ between the studies behind these lines. Numbers after ± are the reported error.
# NR3C1: Glucocorticoid receptor (NR3C1, Homo sapiens, UniProt P04150)
Structure (SMILES),tested on,test,test system,conditions,quantity,result
CCN1CCN(Cc2ccc(NC(=O)c3ccc(C)c(Oc4ncnc5cc(OC)c(OC)cc45)c3)cc2C(F)(F)F)CC1,"HCK (Homo sapiens, UniProt P08631)",KINOMEscan competition binding,,1.0 µM,residual probe binding,0.3%
Nc1c(C(=O)Nc2c(F)cc(F)cc2Br)sc2nc3c(cc12)CCC3,"Copper chaperone for superoxide dismutase, domain I (CCS, Homo sapiens, UniProt O14618)","binding, fluorescence anisotropy",,,Kd,12.2 µM
O=C(Nc1cccnn1)N1CC(Oc2ccc(-c3ccccc3F)cn2)C1,,measured: plasma endocannabinoids,"human, plasma","oral, single dose",time lag between PK and PD maxima,~2 h
C[C@]12CC[C@@H]3[C@H](CCC4=CC(=O)CC[C@]43C)[C@]1(O)CC[C@@]2(O)C(=O)CO,NR3C1,"nuclear translocation, agonist, enzyme fragment complementation",,,EC50,> 9 µM
O=C1c2cccc3cc([N+](=O)[O-])cc(c23)C(=O)N1NCCO,"Beta-nerve growth factor (Mus musculus, UniProt P01139)","binding, SPR",,25 °C,Kd,49.7 µM
CCCCCCCC(=O)OCC(COP(=O)(O)OC1C(O)C(O)C(OP(=O)(O)O)C(OP(=O)(O)O)C1O)OC(=O)CCCCCCC (stereo not drawn),"Arf-GAP with SH3 domain, ANK repeat and PH domain-containing protein 1, PH-ArfGAP-Ank repeats (Asap1, Mus musculus, UniProt Q9QWY8)","protein binding to vesicles, vesicle sedimentation",large unilamellar vesicles,"PH-ArfGAP-Ank fragment, together with: 75 µM phosphatidylserine",Kd,11 ± 2 µM
Nc1ncnc2c1ncn2[C@@H]1O[C@H](COP(=O)(O)OP(=O)(O)OC[C@H]2OC(O)[C@H](O)[C@@H]2O)[C@@H](O)[C@H]1O (stereo partly drawn),"ADP-ribose glycohydrolase AF_1521 (Archaeoglobus fulgidus, UniProt O28751)","labelled tracer, fluorescence polarization",,"pH 7.4, 22 °C, 150 mM NaCl",Kd,1.2 µM
O=C1C=C(NCCc2cc(Br)c(O)c(Br)c2)C(=O)c2ncccc21,actin,SPR,,,Kd,603 µM
CS(=O)(=O)c1ccc(NC(=O)CSc2nnc(-c3ccccc3F)n2-c2ccccc2)cc1,"Cyclin-dependent kinase 2, part with cyclin A (CDK2, Homo sapiens, UniProt P24941)",,,,Kd,> 100 µM
COc1cc(CC(=O)NCC(NC(=O)C(CCCNC(=O)c2cccc(I)c2)NC(=O)C(Cc2ccc(C(F)(F)P(=O)(O)O)cc2)NC(=O)c2ccc(C)c(Br)c2)C(N)=O)ccc1O (stereo not drawn),"PTPN11 (Homo sapiens, UniProt Q06124)",enzyme activity,,10 µM,inhibition,no inhibition
O=S(=O)(c1ccc(O)cc1O)N1Cc2ccc(O)cc2C1,"PDK2 (Homo sapiens, UniProt Q15119)",isothermal titration calorimetry,,,Kd,0.494 µM
Fc1cc(-c2ccc3c(n2)[nH]c2ccncc23)ccn1 [isotope labelled],"Microtubule-associated protein tau, paired helical filaments (MAPT, Homo sapiens, UniProt P10636)","binding, radioligand binding",AD brain PHF homogenate,,Kd,0.021 µM
CC(C)c1cc2c(N3CCN(C4=NCC(C)(C)S4)CC3)ncnc2s1,"Menin (MEN1, Homo sapiens, UniProt O00255)","binding, isothermal titration calorimetry",,,Kd,0.201 µM
C[C@]12CC[C@H](O)CC1=CC[C@H]1[C@@H]2CC[C@@]2(C)C(N(CCO)CCO)CC[C@@H]12 (stereo partly drawn),NR3C1,"nuclear translocation, agonist, enzyme fragment complementation",,,EC50,> 9 µM
Cc1c(O)cc2c(c1C)O[C@](C)(CCCC(C)C)CC2,"RAC-alpha serine/threonine-protein kinase, PH domain (AKT1, Homo sapiens, UniProt P31749, del38-52)","binding, SPR",,"PH domain, VL2 deleted",Kd,30 ± 4 µM

# Some of these lines once more:
Structure (SMILES),tested on,test,test system,conditions,quantity,result
Fc1cc(-c2ccc3c(n2)[nH]c2ccncc23)ccn1 [isotope labelled],"Microtubule-associated protein tau, paired helical filaments (MAPT, Homo sapiens, UniProt P10636)","binding, radioligand binding",AD brain PHF homogenate,,Kd,0.021 µM
